Results pooled from the literature.
Each numbered part is a random draw from the data of one study; scales do not carry over between parts. Positions count from the first letter of the parent shown.

Study 1
Target: CCNB2, cyclin fold, Cln2 fusion (human)
Method: yeast growth competition, sequencing
Sample: yeast
Notes: weak parent motif
Relative to: not given
Reading: higher = stronger binding
Parent: SLBP docking peptide (human); ARYKRKLLINDFG; partner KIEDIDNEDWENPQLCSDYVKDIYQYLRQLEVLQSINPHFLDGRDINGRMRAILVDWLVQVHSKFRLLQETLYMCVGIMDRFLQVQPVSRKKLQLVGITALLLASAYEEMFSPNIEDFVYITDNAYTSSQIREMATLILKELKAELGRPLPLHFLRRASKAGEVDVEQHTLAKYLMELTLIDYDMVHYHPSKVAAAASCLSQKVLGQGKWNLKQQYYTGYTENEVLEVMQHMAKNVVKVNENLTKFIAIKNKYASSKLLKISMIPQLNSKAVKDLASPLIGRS
`K4E`: “normalised enrichment score” 0.294.
For `R2V`, “normalised enrichment score” read 0.511.
`Y3L` — result for “normalised enrichment score”: 1.24.
`F12Q`: “normalised enrichment score” 0.366.
`K4I` — result for “normalised enrichment score”: 0.316.
For `I9H`, “normalised enrichment score” read 0.82.
`A1H` — result for “normalised enrichment score”: 0.59.
For `N10H`, “normalised enrichment score” read 0.521.
`R2C` — result for “normalised enrichment score”: 0.466.

Study 2
Target: RNA binding protein fox-1 homolog 2, RRM domain, GST-SBP tag (RBFOX2, Homo sapiens, UniProt O43251-10, residues 100-194)
Method: RNA Bind-n-Seq
Form: RNA
Sample: in vitro
Concentration: 365 nM
Notes: natural RNA segment, single round, ends assumed
Relative to: no-protein control
Reading: higher = stronger binding
Constant ends, left off below: GGGAGUUCUACAGUCCGACGAUC … UGGAAUUCUCGGGUGCCAA
Target sequence (chain): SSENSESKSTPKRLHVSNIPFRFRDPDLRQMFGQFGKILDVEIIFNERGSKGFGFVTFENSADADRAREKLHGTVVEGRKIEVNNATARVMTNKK
`GAUUUUUCUAAGAUGUUGAGUAUUGUGUAAGUAAGCUUUGAGUCUUUGAACCUGAUUGAAAUGCAAAGCAAGGGUGACUCAUUGUUAGGAGAAGUAAAGGCCACGGAAGG` — result for “RBNS enrichment (R)”: 3.43.
`AGGCCGCAUGGAUGAGGCCGUGUGGCGGCCCUACUGACCGCCCUGGUGGACUCCUCCCGCUGGAGGCGGGGACCCUAACAACCUUCAAGACCAGUGAUGGGCCGGCUCCG` — result for “RBNS enrichment (R)”: 0.779.
`GGCAGCAGGAAGAGCGCACUCUCGACAUUCUUGUCUCUGCUUUAGAAUGCUGCUGUGUCUGUCAUGUGUGCACUCCUCGCCCCUCCUCGCUUUGCUAACCAAAGAACAUA`: “RBNS enrichment (R)” 0.417.
`CCUCAUUGAACACGAGAUGGAGCUAGGAAUGCACGUGGGGCUGUGAACUGGAUGCACUGGCCAUAGCUAGCAUCAAUGUCCCCGUGUUUCCAGGAACCCCUGCCAUGAGG`: “RBNS enrichment (R)” 0.899.
`CUGUCUUUAAAGCCAAGAAAGUAGUAAUUAAGUAGCCUAGAUUUAAGGAGGGUAGAAUAAGCAUUUAUUCCCCUGCCUUCCAAAUUGAAGAGGAGGACUUGGCCUCAAGC`: “RBNS enrichment (R)” 0.377.
`CUAUAAAGAAAUACAGUUAAUAACAAGGUUUCAAAUUAUUCCUUUAACAUUAAUAGAACAAUCCAAAUGUUGAGCAUAUUUUGAUAUUAAACUAAAGAUCACGUCUCUGU` — result for “RBNS enrichment (R)”: 0.412.
`UAAUGAAUCCUGGGACAUACUGAUGACUAUAAACUGGCCUCUCUGAGUCAUAGAAAAAUGGCCUUAUUUCUCCAGAAGUGAGUAAACCACACUUCCAGGCUAUCUGAACU` — result for “RBNS enrichment (R)”: 0.33.
Under “RBNS enrichment (R)”, `CUGACAGCUCUAUCCCAUCCCAGUCCUUGUCCCUGUCUGUUGACUCUGCUUUACCUUCUUAAGCCACCUAAUUGUUGGCCCCACUACGGGUAGCCAGAGGCUUUGAGCCU` is recorded as 0.816.
`UUGGAAGCCAGGUGCAGGGCCAGGCAUCUGCAUUGUGGGAUGUUAAUGGCACUUUUGUCUUGUAGCUAUUUUGAGAUGUGGUCCAGAGCAUUUCAGCUGGGAGAUCUCCC`: “RBNS enrichment (R)” 1.31.
Under “RBNS enrichment (R)”, `GGUUCUUCCUGUGUGGUCCAGAACCACGAGCCUGGUAAAGGAACUAUGCAAACACAGGCCCUGACCUCCCCAUGUCUGUUCCUGGUCCUCACAGCCCGACACGCCCUGCU` is recorded as 0.449.
Under “RBNS enrichment (R)”, `AAGGUUCUUUGAAGAAUUUUGGGGCAGGGCAUCAGAUUAGAGUUUUAAAAUUUGAGUAUUUUGGAUAUCAGUGUUCCUCAUGAAGAUAUACAUGGAUAUUCAAUUUUGAU` is recorded as 0.411.
Under “RBNS enrichment (R)”, `GUGUGUAGGCUCCCUUCUCACCCCAGGCACCUAGGAGCCCUCUUGCCAGUUCCUCUCUCGCUCUGUUUCCAGACCUGUCUCUCUCUCUGUCCUGGCAGCUUCUCUGAGGU` is recorded as 1.

Study 3
Target: ABI1, truncated, D143A, DHFR fusion (Arabidopsis thaliana)
Method: DHFR PCA, deep sequencing
Sample: yeast
Notes: methotrexate growth selection, single substitutions
With: (+)-ABA 0.39 µM
Relative to: wild-type fitted maximum
Reading: higher = stronger binding
Parent: PYL1, truncated, DHFR fusion (Arabidopsis thaliana); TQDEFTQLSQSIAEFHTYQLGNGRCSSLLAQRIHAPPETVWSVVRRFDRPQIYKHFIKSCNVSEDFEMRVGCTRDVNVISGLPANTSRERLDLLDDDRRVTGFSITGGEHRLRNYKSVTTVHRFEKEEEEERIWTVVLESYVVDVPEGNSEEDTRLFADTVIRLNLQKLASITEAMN
Under “relative binding score”, `E127I` is recorded as 35.8%.
For `H55N`, “relative binding score” read 35.3%.
`P50L` — result for “relative binding score”: -0.862%.
For `L8V`, “relative binding score” read 4.75%.
`K54A`: “relative binding score” -14.8%.
For `T119K`, “relative binding score” read -3.55%.
`C25M`: “relative binding score” 3.52%.
`R113W` — result for “relative binding score”: -7.59%.
`A170T`: “relative binding score” 23.3%.
Under “relative binding score”, `A158T` is recorded as 47.8%.
`N61G` — result for “relative binding score”: 4.86%.
For `Q10R`, “relative binding score” read 37.9%.

Mixed results
`PhoQ, residues 284 288 289 292 302 303 ASSHFY` gave a fold induction of 39.7 (PhoP, residues 12 14 15 18 19 STHWV (Escherichia coli, UniProt P23836); Sort-seq, measured: YFP reporter; E. coli; PhoQ-PhoP variant library, with: 10 µM Mg2+; relative to: high Mg2+ state, higher = stronger signaling).

Excerpt of the above (study 3):
For `L8V`, “relative binding score” read 4.75%.
`K54A`: “relative binding score” -14.8%.
